# Published values from different studies.
# Protocols differ between the studies behind these lines. ± marks the error that the study gave.
# MPO mature: MPO mature (Homo sapiens, UniProt P05164)
# Chain of UniProt P05164 (whole entry, looked up): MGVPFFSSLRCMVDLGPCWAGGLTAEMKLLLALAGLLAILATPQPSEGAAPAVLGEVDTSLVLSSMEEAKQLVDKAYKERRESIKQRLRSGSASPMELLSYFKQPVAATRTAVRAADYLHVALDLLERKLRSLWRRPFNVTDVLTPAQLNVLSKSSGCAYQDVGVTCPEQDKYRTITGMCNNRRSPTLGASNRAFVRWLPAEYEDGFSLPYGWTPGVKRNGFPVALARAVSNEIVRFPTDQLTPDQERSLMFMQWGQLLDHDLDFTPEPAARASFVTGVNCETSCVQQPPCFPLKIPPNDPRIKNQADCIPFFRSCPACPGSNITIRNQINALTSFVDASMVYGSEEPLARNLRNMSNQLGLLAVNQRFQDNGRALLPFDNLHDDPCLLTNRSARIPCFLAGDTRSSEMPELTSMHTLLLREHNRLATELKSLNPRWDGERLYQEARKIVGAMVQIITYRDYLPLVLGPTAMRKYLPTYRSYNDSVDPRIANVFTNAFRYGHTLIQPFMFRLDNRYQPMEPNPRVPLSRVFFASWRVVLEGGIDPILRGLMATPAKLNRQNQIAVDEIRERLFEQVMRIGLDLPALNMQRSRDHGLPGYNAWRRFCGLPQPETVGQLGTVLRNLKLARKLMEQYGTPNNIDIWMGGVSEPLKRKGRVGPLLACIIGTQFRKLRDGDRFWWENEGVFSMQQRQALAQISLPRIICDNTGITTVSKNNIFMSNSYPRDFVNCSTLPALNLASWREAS
# PPIA: PPIA (Homo sapiens, UniProt P62937)
# KPC-2: KPC-2 (Klebsiella pneumoniae, UniProt Q9F663)
# TEM-1 β-lactamase: TEM-1 β-lactamase (UniProt P62593)
# B1: eutB (Salmonella enterica, UniProt P19264); chain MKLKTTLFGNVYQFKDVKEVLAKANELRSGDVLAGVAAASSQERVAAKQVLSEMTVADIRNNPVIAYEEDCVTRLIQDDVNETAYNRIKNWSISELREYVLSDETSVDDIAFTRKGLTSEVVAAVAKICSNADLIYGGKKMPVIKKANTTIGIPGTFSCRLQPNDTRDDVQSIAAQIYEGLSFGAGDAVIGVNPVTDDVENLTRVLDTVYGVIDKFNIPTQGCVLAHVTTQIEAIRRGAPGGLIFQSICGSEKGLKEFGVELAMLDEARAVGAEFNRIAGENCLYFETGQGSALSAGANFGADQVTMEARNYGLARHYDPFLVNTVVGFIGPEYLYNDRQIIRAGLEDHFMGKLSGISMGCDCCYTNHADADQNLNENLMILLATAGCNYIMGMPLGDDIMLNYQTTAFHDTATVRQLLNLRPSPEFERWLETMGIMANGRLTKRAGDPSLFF
# B2: bbk32 108-205 (Borrelia burgdorferi, UniProt O50835); chain LKEQSETRKEKIQKQQDEYKGMTQGSLNSLSGESGELEEPIESNEIDLTIDSDLRPKSSLQGIAGSNSISYTDEIEEEDYDQYYLDEYDEEDEEEIRL
# B3: blaNDM-1 39-270 (Klebsiella pneumoniae, UniProt C7C422); chain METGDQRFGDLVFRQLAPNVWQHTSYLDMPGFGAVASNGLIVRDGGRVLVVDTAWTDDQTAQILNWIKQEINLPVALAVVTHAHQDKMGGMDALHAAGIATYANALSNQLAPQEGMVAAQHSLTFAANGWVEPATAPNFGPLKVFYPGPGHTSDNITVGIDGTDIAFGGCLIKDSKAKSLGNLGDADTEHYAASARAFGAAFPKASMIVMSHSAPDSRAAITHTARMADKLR
# Chain of UniProt P07589 (whole entry, looked up): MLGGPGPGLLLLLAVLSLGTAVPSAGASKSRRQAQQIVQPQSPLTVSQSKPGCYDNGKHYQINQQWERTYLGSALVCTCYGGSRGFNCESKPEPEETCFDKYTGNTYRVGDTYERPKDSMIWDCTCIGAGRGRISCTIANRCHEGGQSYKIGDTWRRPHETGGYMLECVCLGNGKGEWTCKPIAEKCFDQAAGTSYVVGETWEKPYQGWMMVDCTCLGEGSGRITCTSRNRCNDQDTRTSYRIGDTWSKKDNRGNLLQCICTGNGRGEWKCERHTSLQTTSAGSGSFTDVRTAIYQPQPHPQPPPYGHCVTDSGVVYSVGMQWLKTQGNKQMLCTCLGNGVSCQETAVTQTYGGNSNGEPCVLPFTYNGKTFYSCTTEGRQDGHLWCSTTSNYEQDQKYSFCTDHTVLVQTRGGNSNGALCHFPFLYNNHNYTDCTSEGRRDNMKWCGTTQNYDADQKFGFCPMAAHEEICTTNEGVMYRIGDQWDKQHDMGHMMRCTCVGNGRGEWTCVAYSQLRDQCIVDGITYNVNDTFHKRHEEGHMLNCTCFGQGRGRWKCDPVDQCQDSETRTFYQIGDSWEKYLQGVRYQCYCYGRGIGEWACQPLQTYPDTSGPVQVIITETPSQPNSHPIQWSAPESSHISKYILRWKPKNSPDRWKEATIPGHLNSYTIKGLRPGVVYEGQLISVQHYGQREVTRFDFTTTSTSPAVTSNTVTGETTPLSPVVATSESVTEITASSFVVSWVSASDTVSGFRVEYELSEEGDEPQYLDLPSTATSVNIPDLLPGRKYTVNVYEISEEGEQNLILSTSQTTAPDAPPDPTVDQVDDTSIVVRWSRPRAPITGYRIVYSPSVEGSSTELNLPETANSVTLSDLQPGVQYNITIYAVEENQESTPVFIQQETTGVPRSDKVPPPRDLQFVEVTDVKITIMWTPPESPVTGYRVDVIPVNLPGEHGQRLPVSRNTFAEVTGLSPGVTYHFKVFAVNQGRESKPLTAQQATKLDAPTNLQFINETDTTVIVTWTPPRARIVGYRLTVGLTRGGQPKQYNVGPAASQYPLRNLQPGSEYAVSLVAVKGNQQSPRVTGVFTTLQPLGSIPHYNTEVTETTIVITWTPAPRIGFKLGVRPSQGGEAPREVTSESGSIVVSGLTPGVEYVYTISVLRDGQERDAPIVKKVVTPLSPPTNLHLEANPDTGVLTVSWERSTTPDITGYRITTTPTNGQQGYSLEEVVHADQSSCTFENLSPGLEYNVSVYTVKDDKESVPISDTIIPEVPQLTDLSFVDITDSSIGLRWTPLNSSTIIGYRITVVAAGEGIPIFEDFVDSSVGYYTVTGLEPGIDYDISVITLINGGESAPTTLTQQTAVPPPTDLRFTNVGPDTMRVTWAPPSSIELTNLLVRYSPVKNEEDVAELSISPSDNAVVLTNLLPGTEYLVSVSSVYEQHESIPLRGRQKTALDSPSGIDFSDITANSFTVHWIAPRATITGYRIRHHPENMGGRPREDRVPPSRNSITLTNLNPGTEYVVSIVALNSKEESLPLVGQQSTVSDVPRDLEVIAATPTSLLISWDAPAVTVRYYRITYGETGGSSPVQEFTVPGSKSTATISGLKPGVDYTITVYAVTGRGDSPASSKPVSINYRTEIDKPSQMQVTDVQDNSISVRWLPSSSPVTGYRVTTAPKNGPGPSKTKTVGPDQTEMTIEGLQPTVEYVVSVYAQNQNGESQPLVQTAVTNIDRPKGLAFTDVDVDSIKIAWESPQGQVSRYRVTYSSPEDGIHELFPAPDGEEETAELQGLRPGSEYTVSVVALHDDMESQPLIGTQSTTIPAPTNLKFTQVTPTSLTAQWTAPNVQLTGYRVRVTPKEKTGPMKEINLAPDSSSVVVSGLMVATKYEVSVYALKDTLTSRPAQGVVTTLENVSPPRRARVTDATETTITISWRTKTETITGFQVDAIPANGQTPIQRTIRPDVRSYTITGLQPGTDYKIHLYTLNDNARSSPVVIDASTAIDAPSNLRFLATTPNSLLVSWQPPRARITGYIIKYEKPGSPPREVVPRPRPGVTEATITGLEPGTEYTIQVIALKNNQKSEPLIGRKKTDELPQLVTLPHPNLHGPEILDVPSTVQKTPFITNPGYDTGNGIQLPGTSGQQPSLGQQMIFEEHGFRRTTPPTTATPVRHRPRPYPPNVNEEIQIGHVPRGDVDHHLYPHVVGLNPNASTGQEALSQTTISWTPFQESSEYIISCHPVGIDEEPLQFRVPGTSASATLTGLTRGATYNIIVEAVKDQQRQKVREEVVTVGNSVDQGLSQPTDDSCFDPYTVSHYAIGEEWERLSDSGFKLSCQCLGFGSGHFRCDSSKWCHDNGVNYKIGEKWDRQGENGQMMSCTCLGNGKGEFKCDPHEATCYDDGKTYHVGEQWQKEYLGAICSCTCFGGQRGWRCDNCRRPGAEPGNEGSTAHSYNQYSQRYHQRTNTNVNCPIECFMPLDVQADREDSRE
# Chain of UniProt P10591 (whole entry, looked up): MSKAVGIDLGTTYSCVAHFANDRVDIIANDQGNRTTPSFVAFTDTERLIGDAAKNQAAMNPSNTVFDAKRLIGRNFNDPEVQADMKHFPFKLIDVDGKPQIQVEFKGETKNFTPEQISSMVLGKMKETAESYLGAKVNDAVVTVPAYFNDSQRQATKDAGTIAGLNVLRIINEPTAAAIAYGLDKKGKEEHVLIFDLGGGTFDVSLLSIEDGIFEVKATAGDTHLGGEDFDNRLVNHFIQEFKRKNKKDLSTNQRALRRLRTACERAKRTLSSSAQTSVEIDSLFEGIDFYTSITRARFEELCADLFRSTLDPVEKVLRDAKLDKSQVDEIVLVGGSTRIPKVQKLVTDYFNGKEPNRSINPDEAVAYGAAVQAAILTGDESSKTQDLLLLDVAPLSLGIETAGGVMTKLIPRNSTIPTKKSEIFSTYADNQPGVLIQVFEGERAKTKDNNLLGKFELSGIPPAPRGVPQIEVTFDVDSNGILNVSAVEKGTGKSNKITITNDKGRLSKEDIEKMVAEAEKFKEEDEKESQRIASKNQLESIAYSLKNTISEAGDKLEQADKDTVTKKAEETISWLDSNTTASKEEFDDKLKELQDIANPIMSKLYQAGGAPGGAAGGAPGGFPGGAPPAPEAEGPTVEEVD
Substance,tested on,test,system,conditions,scale,quantity,value
SPIN mature E52A (Staphylococcus aureus),MPO mature,"MPO peroxidase activity, inhibitor",,L49A variant,,IC50,64.4 nM
"NS5A mature (hepatitis C virus, UniProt Q9WMX2)",PPIA,AlphaScreen,,in vitro translated,"baseline: control reactions RLU, higher = stronger interaction",signal over control,2.3 fold
SPIN mature L49A/E52A (Staphylococcus aureus),MPO mature,"MPO peroxidase activity, inhibitor",,L49A variant,,IC50,268 nM
NS5B mature (hepatitis C virus),PPIA,"luciferase, two-hybrid",CHO,,"baseline: pACT/pBIND RLU, higher = stronger interaction",signal over pACT/pBIND,6 fold
B1 (eutB),"eutA (Salmonella enterica, UniProt Q9ZFV2)",cross-linking,,,,binding,binds
"AIP1 mature, cyclic thiolactone ring (Staphylococcus aureus)",agrC (Staphylococcus aureus),"competition with FITC-AIP1, competitor, flow cytometry",S. aureus,"1 µM, wild-type, unlabelled synthetic AIP1","baseline: no unlabelled competitor, higher = more inhibition",FITC-AIP1 binding inhibition,50%
"CAGGIFHSLALKC (BLIP-II cyclic peptide (Streptomyces); C-terminal amide, cyclic, disulfide)",KPC-2,BLI,peptide,,,Kd,240 ± 6 nM
gag CA CTD fragment F167Y/R185W (Rous sarcoma virus),itself,ITC,,,,Kd,540000 ± 230000 nM
"SNLNTDMGNGIASNRWINYQQFIQTLEKAIEQHRLQLTQWTQKVDLALKSW (fliJ 51-101 (Salmonella enterica, UniProt P0A1K1))","fliT 1-95 (Salmonella enterica, UniProt P0A1N2)",solution NMR structure,,,,binding,binds
"CWSEYYPAYC (BLIP cyclic peptide (Streptomyces clavuligerus); C-terminal amide, cyclic, disulfide)",KPC-2,BLI,peptide,,,Kd,510 ± 8 nM
B2 (bbk32 108-205),"FN1 mature (Bos taurus, UniProt P07589)",SPR,,Langmuir model,,koff,0.072 s⁻¹
"CAIAGGYFHGLALKGC (BLIP-II cyclic peptide (Streptomyces); C-terminal amide, cyclic, disulfide)",KPC-2,BLI,peptide,,,Kd,310 ± 7 nM
aspterric acid,,,Arabidopsis thaliana Col-0 seeds,"25 µg/mL, seed germination",,hypocotyl length,0.049 cm
RRLEDAEYAARG (A7 peptide; fluorescein label),"SSA1 (Saccharomyces cerevisiae, UniProt P10591)",fluorescence polarisation,peptide,with: ADP,,binding,binds
CDGYSSTGFYRGSAHLWFC (MBP/BLIP cyclic peptide (Streptomyces clavuligerus); cyclic),KPC-2,SPR,peptide,,,Kd,2100 ± 230 nM
NS5A fragment (hepatitis C virus),PPIA H126Q (Homo sapiens),AlphaScreen,,H126Q,"baseline: GST-CypA RLU, higher = stronger interaction",signal over GST-CypA,2.7 fold
"CHLWFTDGVLC (BLIP cyclic peptide (Streptomyces clavuligerus); C-terminal amide, cyclic, disulfide)",TEM-1 β-lactamase,BLI,peptide,,,koff,0.00015 s⁻¹
SPIN mature L49A (Staphylococcus aureus),MPO mature,"MPO peroxidase activity, inhibitor",,L49A variant,,IC50,37.8 nM
B3 (blaNDM-1 39-270),"prc K477A (Escherichia coli, UniProt P23865)",SEC,,,,binding,binds
CDYYAYATFGFTSAAADAKVC (MBP/BLIP cyclic peptide (Streptomyces clavuligerus); cyclic),TEM-1 β-lactamase,SPR,peptide,,,koff,0.00053 s⁻¹
insulin human,,item: PPAT mRNA,"uninfected mouse, brain","i.p., dose not given",baseline: PBS,fold change,1.05

# Repeated from above:
Substance,tested on,test,system,conditions,scale,quantity,value
aspterric acid,,,Arabidopsis thaliana Col-0 seeds,"25 µg/mL, seed germination",,hypocotyl length,0.049 cm
RRLEDAEYAARG (A7 peptide; fluorescein label),"SSA1 (Saccharomyces cerevisiae, UniProt P10591)",fluorescence polarisation,peptide,with: ADP,,binding,binds
